Measurements from different studies.
Each numbered part is a random draw from the data of one study; scales do not carry over between parts.

Block 1
Target: Sal-like protein 4, full length isoform B (SALL4, Homo sapiens, UniProt Q9UJQ4-2, residues 1-616)
Method: universal PBM
Form: double-stranded DNA, one strand shown
Matrix: in vitro
Tested at: not given
Setting: 8-mer, flanks averaged, mean of replicates
Reading: higher = stronger binding
Oligonucleotide | E-score
AAAGTACG | 0.132
AGAGTTCG | -0.093
CAAAGCGA | -0.00302
ACATTCGA | 0.0875
CGCCAGTC | -0.199
ACCCGCCA | -0.0406

Block 2
Target: TATA-box-binding protein 1 (TBP1, Arabidopsis thaliana, UniProt P28147, residues 1-200, full length assumed)
Method: protein-binding microarray
Form: double-stranded DNA, one strand shown
Matrix: in vitro
Tested at: not given
Setting: k-mer, scored over probes, only values ≥0.25
Reading: higher = stronger binding
Construct (chain): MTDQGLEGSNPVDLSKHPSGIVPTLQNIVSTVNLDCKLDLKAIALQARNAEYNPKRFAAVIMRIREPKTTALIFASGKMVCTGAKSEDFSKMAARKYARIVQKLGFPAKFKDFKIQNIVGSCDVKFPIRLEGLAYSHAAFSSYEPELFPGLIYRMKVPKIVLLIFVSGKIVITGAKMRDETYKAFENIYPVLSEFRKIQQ
Oligonucleotide | E-score
GGGTTTA | 0.273
GGTAATA | 0.372
ACCTTTA | 0.268
TCCTTAA | 0.261
ATGTTTA | 0.264
TCTTTAA | 0.369

Block 3
Target: Histone acetyltransferase KAT6A, winged helix 1, GST fusion (KAT6A, Homo sapiens, UniProt Q92794, residues 1-85)
Method: protein binding microarray
Form: double-stranded DNA, one strand shown
Matrix: in vitro
Tested at: not given
Setting: 8-mer, flanks averaged, mean of 2 arrays, mostly near background
Reference: not given
Reading: higher = stronger binding
Target sequence (chain): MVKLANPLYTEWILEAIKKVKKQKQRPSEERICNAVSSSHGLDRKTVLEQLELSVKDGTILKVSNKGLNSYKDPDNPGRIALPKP
Oligonucleotide | E-score
GTATCTCA | 0.0314
ATCATAAG | -0.166
TCGGGACA | -0.0308
GGCGAACA | 0.157
AGAGCATC | -0.102
AGGTTGGA | -0.0672
GTGTCCTA | 0.0628
CCCCGCGC | 0.425

Mixed results
Molecule | target | test | system | setting | scale | endpoint | value
PhoQ, residues 284 288 289 292 302 303 AANNSF | PhoP, residues 12 14 15 18 19 LYHSL (Escherichia coli, UniProt P23836) | Sort-seq, refers to: YFP reporter | E. coli | PhoQ-PhoP variant library, with: 10 µM Mg2+ | reference: high Mg2+ state, higher = stronger signaling | fold induction | 21.4

Some of these lines once more (block 2):
Oligonucleotide | E-score
ATGTTTA | 0.264
TCTTTAA | 0.369
